Published values gathered from unrelated publications.
Numbered parts are unrelated; each lists some results of a single study. Changes are numbered by the printed parent chain.

Sample 1 — method: universal PBM; molecule type: double-stranded DNA, one strand shown; sample: in vitro; tested at: not given; direction: higher = stronger binding; quantity: E-score
Target: Sal-like protein 4, full length isoform B (SALL4, Homo sapiens, UniProt Q9UJQ4-2, residues 1-616)
Setting: 8-mer, flanks averaged, mean of replicates
TCGATAAA: 0.286
CCCCAAGG: -0.254
TAGCCGAA: -0.129
GGACAGTA: 0.109
AATCCGCT: -0.0484
GTGCCAAC: -0.163
GACTGACA: 0.0355
ATGACGGC: -0.0621
CCCGTTAC: 0.0639
AGCTGCGA: -0.185
TCAGGCAA: -0.0419
ATCTCCCC: -0.12
TACTTGCA: 0.21
AGATGACG: 0.0417
AATGATAG: 0.201

Sample 2 — method: RNA Bind-n-Seq; molecule type: RNA; sample: in vitro; tested at: 365 nM; reference: no-protein control; direction: higher = stronger binding; quantity: RBNS enrichment (R)
Target: RNA binding protein fox-1 homolog 2, RRM domain, GST-SBP tag (RBFOX2, Homo sapiens, UniProt O43251-10, residues 100-194)
Setting: natural RNA segment, single round, ends assumed
Shared flanks, not repeated: GGGAGUUCUACAGUCCGACGAUC … UGGAAUUCUCGGGUGCCAA
Target sequence (chain): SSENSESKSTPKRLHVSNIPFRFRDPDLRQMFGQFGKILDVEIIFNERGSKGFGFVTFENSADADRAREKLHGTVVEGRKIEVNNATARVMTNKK
UUGUGACCCUCAUGUUUCCUGUAAGUCUGUUUCAUGGUAGGGUUCAUACCUGCCUCAGCCUGACAGGAGUAGGUUUUCCGCAACCCACUGUGCUGAGACAGUUGAUGUGA: 0.401
AGGAAAGAUGUAAUGCAAAGCUGAUUGUUUAAUGUCUUACAGAUUUACACUGUCUUUAAAAGGCCAAAUAAGGCUGGGCGCAGUGGCUCACACCUGUAAUCCCAACAUUU: 0.269
GAUAGUCACUGGCAGAGCUCUGCAUGGGUGAGAAGGUCCUGACUGCCGGCACCUAACAGCCUUAGUGUGGGGAUCUGGAGGCUGGCUUUGCUGGGGACAAUCCCGGGUAG: 2.67
UCACUCACUCACUGGUGCUGGCCUAGCCCCAGUUCACUCUGGUGCCACAAUAAACCUGUAUCUAGCUUGUGCUCUGUGCCUCCCCGCUUUGCAUCCGGAAUGGUGGGACU: 1.28
GUGAAGGGAAAAAUGAUUUUGCAAGACCUAGAUUUUGGCUUGGUUUCUUGCCUCCUUUUUUGGCAGCCUUCAUCUUUUCCUAAAGCCCUUGAGCCUGUAGGGUUUUCAUA: 1.66
ACCAAGAUUAGGACGUCAGUGGCUUAAAUUCUUUGAAUUCUUUUCAAGGACUGCAAGAUUAUUUGAUAAAGAGUAGCAUGAAUCUUGUGCUCUAAUAUUACACAGUAAGU: 7.34
CAAGGCCCGGUGGUUGACAUCUGUGUGGUUUGUUAGAUGAGACAAAAUGACCAUUAAAUGAGUUUAUAGAUUAUUCUGUAUCAAGAUAAAUCUGAUUCCAGUUAAGCUAU: 0.467
AACACUAAAACGAUUUGAGUAGAGGCUGCUGGUCACCUUUUGUGACCUGAGGAAUCCCAGGCCUGUGAGAAAAGCAAAAAUUCACAUUGCAGCACAUGAUGCCAGAAAUA: 0.34

Sample 3 — method: DHFR PCA, deep sequencing; sample: yeast; added: (+)-ABA 0 µM; reference: wild-type fitted maximum; direction: higher = stronger binding; quantity: relative binding score
Target: ABI1, truncated, D143A, DHFR fusion (Arabidopsis thaliana)
Setting: methotrexate growth selection, single substitutions
Parent: PYL1, truncated, DHFR fusion (Arabidopsis thaliana); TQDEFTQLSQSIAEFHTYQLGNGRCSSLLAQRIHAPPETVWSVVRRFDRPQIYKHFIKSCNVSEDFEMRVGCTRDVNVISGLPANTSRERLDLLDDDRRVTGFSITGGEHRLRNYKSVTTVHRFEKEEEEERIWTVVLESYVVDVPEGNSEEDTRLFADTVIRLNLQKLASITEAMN
S80G: 3.5%
R90F: -4.13%
S26L: 0.605%
R123D: 5.3%
Y18W: 17.8%
A84Y: 85.4%
R163L: 0.639%
V143E: -0.026%
L164R: 10.7%
F5R: 6.74%
T17H: 4.74%
A35F: 0.144%
L20T: 49.5%
A35H: -0.923%
I12N: 5.7%
D3K: 17.1%
E89L: 1.59%
V43M: 2.39%
F56T: -2.76%
G23C: 1.5%
V40M: -6.37%
L29N: -2.79%
G148S: -4.34%
V62Q: -2.06%
S117L: 2.72%

Sample 4 — organism: Saccharomyces cerevisiae; read-out: binding; method: yeast competitive growth sequencing; molecule type: peptide; strain: cyclin A1-Cln2 strain; sample: peptide tiling library; setting: pooled screen; direction: direction not given; quantity: enrichment score
VSRNLRSSLKSSLHTL: -2.84
SCCKRKLVVGNGPEGP: -0.668
ARKRLELGNLGNPQ: -1.15
LRRQLSFSED: 0.411
NNIRKALSFDNRGEEH: -1.63
RRVLCFDS: -1.23
RKLHFEDEVT: -0.0112
LRRKLFLDGNGSIS: -1.42
PQWPCGKHKRVLIFAS: -1.11

A few entries again (sample 1):
CCCGTTAC: 0.0639
ATCTCCCC: -0.12
ATGACGGC: -0.0621
CCCCAAGG: -0.254
AGATGACG: 0.0417
AATCCGCT: -0.0484
AATGATAG: 0.201
TACTTGCA: 0.21
GTGCCAAC: -0.163
